Measured values pooled from the literature.
Lines come from different studies, so protocols differ. Values joined by “and” are separate records of one study, mostly repeats; a detail may differ. ± gives the spread as reported.
ACHE: Acetylcholinesterase (ACHE, Homo sapiens, UniProt P22303)
Sequence of UniProt Q01959 (whole entry, unmodified, looked up): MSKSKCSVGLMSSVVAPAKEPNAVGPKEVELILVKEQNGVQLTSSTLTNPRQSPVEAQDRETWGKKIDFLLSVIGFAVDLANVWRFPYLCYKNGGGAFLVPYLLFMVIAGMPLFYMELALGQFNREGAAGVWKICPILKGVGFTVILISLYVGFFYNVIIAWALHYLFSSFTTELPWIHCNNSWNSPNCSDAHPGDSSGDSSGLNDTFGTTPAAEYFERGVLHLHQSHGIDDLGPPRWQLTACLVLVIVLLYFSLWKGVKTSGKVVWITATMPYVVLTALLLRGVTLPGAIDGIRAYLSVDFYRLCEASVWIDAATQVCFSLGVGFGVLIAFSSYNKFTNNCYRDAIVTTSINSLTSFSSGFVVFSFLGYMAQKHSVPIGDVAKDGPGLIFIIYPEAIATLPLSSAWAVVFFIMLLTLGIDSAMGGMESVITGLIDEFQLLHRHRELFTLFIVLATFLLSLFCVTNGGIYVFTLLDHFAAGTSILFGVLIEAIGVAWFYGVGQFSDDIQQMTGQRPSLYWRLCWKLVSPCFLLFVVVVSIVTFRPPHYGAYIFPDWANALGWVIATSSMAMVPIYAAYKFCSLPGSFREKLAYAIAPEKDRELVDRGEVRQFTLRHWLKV
Sequence of UniProt P22303 (whole entry, looked up): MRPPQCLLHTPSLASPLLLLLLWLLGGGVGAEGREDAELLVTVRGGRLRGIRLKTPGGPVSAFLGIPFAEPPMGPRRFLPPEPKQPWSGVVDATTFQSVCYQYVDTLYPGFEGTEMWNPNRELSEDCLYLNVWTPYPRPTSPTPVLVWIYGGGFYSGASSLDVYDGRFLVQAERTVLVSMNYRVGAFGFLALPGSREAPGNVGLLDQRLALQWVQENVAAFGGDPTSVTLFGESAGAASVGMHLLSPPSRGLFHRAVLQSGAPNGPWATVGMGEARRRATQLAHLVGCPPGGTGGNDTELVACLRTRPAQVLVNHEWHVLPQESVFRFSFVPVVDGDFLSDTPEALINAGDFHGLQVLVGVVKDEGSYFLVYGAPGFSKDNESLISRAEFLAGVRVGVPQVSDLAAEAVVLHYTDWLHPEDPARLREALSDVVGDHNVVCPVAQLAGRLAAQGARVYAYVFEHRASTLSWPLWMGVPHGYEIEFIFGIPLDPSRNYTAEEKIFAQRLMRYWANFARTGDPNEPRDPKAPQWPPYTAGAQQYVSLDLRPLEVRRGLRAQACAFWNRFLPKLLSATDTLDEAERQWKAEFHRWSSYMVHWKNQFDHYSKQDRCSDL
Sequence of UniProt Q9NUJ1 (whole entry, looked up): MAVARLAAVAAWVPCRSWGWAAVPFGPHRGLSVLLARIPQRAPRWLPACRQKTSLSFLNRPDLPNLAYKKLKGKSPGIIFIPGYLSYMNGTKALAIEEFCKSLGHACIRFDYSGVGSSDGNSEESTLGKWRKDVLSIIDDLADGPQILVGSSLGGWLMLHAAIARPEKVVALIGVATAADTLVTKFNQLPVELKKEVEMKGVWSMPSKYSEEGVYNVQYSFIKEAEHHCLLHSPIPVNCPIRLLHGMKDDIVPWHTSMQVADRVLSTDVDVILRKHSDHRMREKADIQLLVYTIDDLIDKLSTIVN
Sequence of UniProt Q16644 (whole entry, looked up): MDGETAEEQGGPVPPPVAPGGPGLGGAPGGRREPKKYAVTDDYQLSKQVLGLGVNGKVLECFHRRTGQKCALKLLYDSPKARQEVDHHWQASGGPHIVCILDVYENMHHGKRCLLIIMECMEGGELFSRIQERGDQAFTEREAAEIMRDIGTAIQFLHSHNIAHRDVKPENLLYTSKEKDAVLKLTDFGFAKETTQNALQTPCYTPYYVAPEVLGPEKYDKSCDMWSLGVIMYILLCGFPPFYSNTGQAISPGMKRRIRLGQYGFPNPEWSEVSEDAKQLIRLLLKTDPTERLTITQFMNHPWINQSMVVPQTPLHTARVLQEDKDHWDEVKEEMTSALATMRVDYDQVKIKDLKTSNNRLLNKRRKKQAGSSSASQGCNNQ
Sequence of UniProt P25440 (whole entry, unmodified, looked up): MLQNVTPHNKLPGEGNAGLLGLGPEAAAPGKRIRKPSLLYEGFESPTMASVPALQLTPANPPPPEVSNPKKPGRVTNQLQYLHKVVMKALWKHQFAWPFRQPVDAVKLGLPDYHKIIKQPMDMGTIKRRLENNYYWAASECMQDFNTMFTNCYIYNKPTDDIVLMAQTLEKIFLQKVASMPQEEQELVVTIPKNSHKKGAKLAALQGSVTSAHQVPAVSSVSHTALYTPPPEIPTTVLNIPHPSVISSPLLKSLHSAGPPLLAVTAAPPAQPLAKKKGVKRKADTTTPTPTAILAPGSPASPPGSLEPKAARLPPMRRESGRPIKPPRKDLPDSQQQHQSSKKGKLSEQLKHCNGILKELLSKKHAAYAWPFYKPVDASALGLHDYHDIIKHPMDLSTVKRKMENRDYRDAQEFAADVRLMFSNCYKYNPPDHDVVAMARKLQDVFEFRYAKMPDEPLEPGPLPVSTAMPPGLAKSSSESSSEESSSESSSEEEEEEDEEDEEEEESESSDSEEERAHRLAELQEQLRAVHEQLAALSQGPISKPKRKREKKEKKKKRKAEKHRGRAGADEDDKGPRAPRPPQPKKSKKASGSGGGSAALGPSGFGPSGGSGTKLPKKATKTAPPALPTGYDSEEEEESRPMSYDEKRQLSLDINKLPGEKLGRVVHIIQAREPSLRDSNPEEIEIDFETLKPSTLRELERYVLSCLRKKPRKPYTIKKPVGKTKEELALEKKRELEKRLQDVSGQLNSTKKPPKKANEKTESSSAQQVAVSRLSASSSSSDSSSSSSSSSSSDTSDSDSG
Sequence of UniProt P51810 (whole entry, looked up): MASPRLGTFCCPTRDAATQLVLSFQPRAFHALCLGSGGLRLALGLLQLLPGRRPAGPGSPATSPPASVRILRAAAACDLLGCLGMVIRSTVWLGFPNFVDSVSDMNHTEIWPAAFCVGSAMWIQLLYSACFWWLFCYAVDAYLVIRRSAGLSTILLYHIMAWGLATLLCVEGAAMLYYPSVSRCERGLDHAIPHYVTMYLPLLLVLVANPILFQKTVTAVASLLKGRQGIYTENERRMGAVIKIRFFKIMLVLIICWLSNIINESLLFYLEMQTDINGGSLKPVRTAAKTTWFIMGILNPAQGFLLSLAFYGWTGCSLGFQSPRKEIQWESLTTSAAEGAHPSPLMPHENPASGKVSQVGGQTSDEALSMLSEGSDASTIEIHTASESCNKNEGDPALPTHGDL
Sequence of UniProt Q92993 (whole entry, looked up): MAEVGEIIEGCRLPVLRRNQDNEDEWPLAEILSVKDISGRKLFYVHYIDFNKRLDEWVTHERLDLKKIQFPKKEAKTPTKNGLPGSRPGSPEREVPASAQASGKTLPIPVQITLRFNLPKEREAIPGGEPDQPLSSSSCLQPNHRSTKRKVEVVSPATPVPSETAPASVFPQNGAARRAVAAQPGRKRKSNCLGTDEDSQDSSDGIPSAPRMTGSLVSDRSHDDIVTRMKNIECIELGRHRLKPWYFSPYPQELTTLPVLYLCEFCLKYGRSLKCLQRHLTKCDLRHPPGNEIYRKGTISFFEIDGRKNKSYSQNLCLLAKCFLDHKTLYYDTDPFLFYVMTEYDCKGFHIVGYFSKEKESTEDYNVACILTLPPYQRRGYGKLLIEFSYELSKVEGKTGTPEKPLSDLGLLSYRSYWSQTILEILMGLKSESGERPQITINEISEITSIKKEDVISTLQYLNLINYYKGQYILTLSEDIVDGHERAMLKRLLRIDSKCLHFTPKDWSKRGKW
Sequence of UniProt P40337 (whole entry, unmodified, looked up): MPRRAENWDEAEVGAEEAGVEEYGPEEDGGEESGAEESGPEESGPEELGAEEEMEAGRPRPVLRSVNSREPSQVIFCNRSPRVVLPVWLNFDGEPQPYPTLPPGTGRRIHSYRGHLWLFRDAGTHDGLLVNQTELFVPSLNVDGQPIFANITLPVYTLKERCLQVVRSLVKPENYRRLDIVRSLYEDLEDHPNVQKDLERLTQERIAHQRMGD
Sequence of UniProt P9WIL3 (whole entry, looked up): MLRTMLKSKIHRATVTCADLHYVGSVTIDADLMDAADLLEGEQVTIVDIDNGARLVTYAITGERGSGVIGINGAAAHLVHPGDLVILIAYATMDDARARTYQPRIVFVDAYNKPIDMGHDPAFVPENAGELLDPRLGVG
Sequence of UniProt P28223 (whole entry, looked up): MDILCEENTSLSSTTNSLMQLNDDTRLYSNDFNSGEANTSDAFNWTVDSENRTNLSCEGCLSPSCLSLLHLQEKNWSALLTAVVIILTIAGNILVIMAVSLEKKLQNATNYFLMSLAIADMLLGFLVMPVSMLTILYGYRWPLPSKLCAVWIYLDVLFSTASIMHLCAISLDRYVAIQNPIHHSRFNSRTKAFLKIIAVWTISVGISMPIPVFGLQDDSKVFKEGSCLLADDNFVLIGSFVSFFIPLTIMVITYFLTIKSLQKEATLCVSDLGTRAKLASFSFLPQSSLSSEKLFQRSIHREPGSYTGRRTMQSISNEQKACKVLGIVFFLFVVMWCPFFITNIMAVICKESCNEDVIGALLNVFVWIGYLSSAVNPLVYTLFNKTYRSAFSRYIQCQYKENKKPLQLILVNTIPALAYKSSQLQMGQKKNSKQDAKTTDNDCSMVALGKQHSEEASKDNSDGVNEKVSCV
Sequence of UniProt Q969G3 (whole entry, looked up): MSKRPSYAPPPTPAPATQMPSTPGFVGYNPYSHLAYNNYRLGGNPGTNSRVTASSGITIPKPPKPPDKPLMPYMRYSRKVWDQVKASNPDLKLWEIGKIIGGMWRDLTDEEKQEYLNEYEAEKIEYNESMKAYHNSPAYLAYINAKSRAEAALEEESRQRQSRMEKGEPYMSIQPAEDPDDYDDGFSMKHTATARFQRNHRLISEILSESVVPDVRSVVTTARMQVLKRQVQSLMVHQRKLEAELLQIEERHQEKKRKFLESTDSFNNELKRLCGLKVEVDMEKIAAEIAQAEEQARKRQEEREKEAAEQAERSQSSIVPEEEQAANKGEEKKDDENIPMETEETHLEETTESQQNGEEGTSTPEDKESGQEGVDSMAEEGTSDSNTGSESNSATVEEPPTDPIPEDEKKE

[2H]c1c([2H])c([C@]2([2H])CCCN2C(=O)C(C)(C)Oc2ccc3cn[nH]c3c2)c([2H])c([2H])c1C([2H])([2H])[2H] — remaining binding (Hepatocyte growth factor receptor (MET, Homo sapiens, UniProt P08581); KINOMEscan; 1 µM; relative to: DMSO control): 94%
CCOc1ccccc1C(=O)Nc1ccc(Cl)c(C(F)(F)F)c1 — SPR binding response (Histone acetyltransferase KAT5 (KAT5, Homo sapiens, UniProt Q92993); SPR; 0.21 µM; higher = more binding): 0.125 RU
Oc1ccc2c3c1O[C@H]1[C@@H](O)CC[C@@]4(O)[C@@H](C2)N(CC2CCC2)CC[C@]314 — log2 fold change (G-protein coupled receptor 143 (GPR143, Homo sapiens, UniProt P51810); β-arrestin recruitment, TANGO luminescence; concentration not given; relative to: basal luminescence): 0.33
CC[C@H](NC(=O)[C@H](CS(=O)(=O)CC1CC1)N[C@@H](c1ccc(F)cc1)C(F)(F)F)C(=O)C(=O)NC1CC1 — IC50 (ACHE; enzyme activity, inhibitor): inactive
CCOc1ccc(CNCCc2ccc3c(c2)OCO3)cc1 — inhibition (Trypanosoma cruzi; reporter translation, Renilla luciferase mRNA translation; cell-free extract; 40 µM; relative to: DMSO): -1%
O=C(O)c1nccnc1NC(=O)c1cccc2ccccc12 — inhibition (Aspartate 1-decarboxylase (panD, Mycobacterium tuberculosis, UniProt P9WIL3); β-alanine production; 200 µM, 40 min, 298 K, together with: L-aspartate 2 mM): 95.5%
O[C@@](Cc1ncc(CC2(C(F)(F)F)CC2)[nH]1)(c1ccc(-n2cccn2)cc1)C(F)(F)F — IC50 (ACHE; enzyme activity, inhibitor): inactive
CNC1(c2ccccc2Cl)CCCCC1=O (racemic) — inhibition (glycine transporter; radioligand binding, radioligand displacement; 30 µM): 4%
O=C(O)CCC(=O)O.c1ccc(C2(c3ccccc3)CC2C2=NCCN2)cc1 (centres unmarked) — IC50 (ACHE; enzyme activity, inhibitor): inactive
CC(=O)N[C@H](C(=O)N1C[C@H](O)C[C@H]1C(=O)NCc1ccc(-c2scnc2C)cc1)C(C)(C)SCCCCCCNC(=O)C[C@@H]1N=C(c2ccc(Cl)cc2)c2c(sc(C)c2C)-n2c(C)nnc21 — binding stoichiometry (BRD2/VHL, BD1; with VCB (Homo sapiens, UniProt P25440+P40337, K107A/Q101K/V106E); ITC; concentration not given, 25 °C, ternary complex, together with: BRD2 BD1): 0.9 ± 0.2
COc1cc(CCNC(C)c2ccccc2O)c(OC)cc1C#N (centres unmarked) — Emax (5-hydroxytryptamine receptor 2A (HTR2A, Homo sapiens, UniProt P28223); receptor activation, agonist): 91%
Cl.Cl.Clc1ccccc1CNCC1CCC(CNCc2ccccc2Cl)CC1 (centres unmarked) — IC50 (ACHE; enzyme activity, inhibitor): inactive
O=S(=O)([O-])C(F)(F)C(F)(F)C(F)(F)C(F)(F)C(F)(F)C(F)(F)C(F)(F)C(F)(F)F.[K+] — mRNA level (RT-qPCR, item: Car; mouse, ethanol-fed, liver; dose not given; relative to: efavirenz): increased
COc1ccc(N2C(=O)N(c3c(C)cccc3Cl)Cc3cnc(Nc4ccc(C5CCN(C)CC5)cc4OC)nc32)nc1 — inhibition (MAP kinase-activated protein kinase 3 (MAPKAPK3, Homo sapiens, UniProt Q16644); kinase activity; 0.5 µM): 6%
c1ccc2cc([C@]34CNC[C@H]3C4)ccc2c1 — dopamine uptake (Sodium-dependent dopamine transporter (SLC6A3, Homo sapiens, UniProt Q01959, V152A); inhibitor, [3H]dopamine uptake; 100 nM, V152A mutant; relative to: no inhibitor): 68.2% and 59.3% and 64.7%
CC[C@H](C)[C@H](NC(=O)CNC(=O)[C@@H](N)CCCCN)C(=O)N[C@@H](CC(C)C)C(=O)N[C@@H](CCCCN)C(=O)N[C@@H](CCCNC(=N)N)C(=O)N[C@@H](CCC(=O)O)C(=O)N[C@@H](CCCCN)C(=O)N[C@@H](CCCNC(=N)N)C(=O)N[C@@H](CC(C)C)C(=O)N[C@@H](CCCNC(=N)N)C(=O)N[C@@H](CCCNC(=N)N)C(=O)N[C@@H](CCCCN)C(=O)N[C@@H](CC(N)=O)C(=O)N[C@H](C(=O)N[C@@H](Cc1c[nH]cn1)C(=O)N[C@@H](Cc1c[nH]c2ccccc12)C(=O)N1CCC[C@H]1C(=O)N[C@@H](CCC(=O)O)C(=O)N[C@@H](CCC(=O)O)C(=O)NCC(=O)N[C@@H](CCCCN)C(=O)N[C@@H](CC(C)C)C(=O)N[C@@H](CCCNC(=N)N)C(=O)N[C@@H](CCC(=O)O)C(=O)N[C@@H](Cc1ccc(O)cc1)C(=O)N[C@@H](Cc1ccccc1)C(=O)N[C@@H](Cc1ccc(O)cc1)C(=O)N[C@@H](Cc1ccccc1)C(=O)N[C@@H](CCC(=O)O)C(=O)N[C@@H](CC(C)C)C(=O)N[C@@H](CC(=O)O)C(=O)N[C@@H](CCC(=O)O)C(=O)N[C@@H](C)C(=O)N[C@@H](CCC(=O)O)C(=O)N[C@@H](CCCNC(=N)N)C(=O)N[C@H](C(=O)N[C@@H](CC(N)=O)C(=O)N[C@H](C(=O)O)C(C)C)C(C)C)C(C)C — log2 fold change (HeLa and HEK-293T cells; phosphatase bead binding, competitive inhibitor, PIB pulldown iBAQ LC-MS/MS, item: PPP4R1; concentration not given; relative to: untreated control): -0.1
O=C(c1ccc(Cl)cc1)N1CCN2C(=O)N(OC(=O)N3CCOc4ccccc43)C(=O)C2C1 (centres unmarked) — median ratio (Palmitoyl-protein thioesterase ABHD10, mitochondrial (Homo sapiens, UniProt Q9NUJ1); enzyme activity, inhibitor, MS-based ABPP; SW-620 in situ; 10 µM, 2 h, 37 °C; relative to: compound over DMSO, lower = stronger inhibition): 1.05
CN1CCN(c2cc(-c3ccncc3)c(-c3ccc4ccccc4c3)nn2)CC1 — inhibition (Corticotropin-releasing factor receptor 2 (CRHR2, Homo sapiens, UniProt Q13324); antagonist, FLIPR; 10 µM): 12.8%
Cc1c(NC(=O)c2cc3c(s2)CCCC3)cccc1-c1cn(C)c(=O)c(Nc2ccc(C3C(=O)N(C)CCN3C)cc2)n1 (racemic) — IC50 (ACHE; enzyme activity, inhibitor): inactive
C[C@H]1CN(c2n[nH]c3nc(N[C@H]4CC[C@H](NS(=O)(=O)CCC(F)(F)F)CC4)ncc23)CCO1 — remaining binding (SWI/SNF-related matrix-associated actin-dependent regulator of chromatin subfamily E member 1 (Homo sapiens, UniProt Q969G3); Kinobeads competition, item: SMARCE1; 0.16 µM, unit not given; relative to: vehicle): 1.33
